Measurements pooled from the literature.
Lines come from different studies, so protocols differ. “And” joins repeats or separate records; there may be more than shown. ± gives the spread as reported.

Compound	test	test system	setting	scale	measurement	result
CCn1ncc2c1-c1cnc(N)c(c1)O[C@H](C)c1cc(F)ccc1-c1nn(C)nc1C2	–	female athymic nude mice, PDX model, plasma	oral, 0.04 mg/kg twice daily, 1 h, 5 days dosing	–	free plasma concentration	0.0057 ± 0.0007 µM
COC(=O)C1=CO[C@@H](O[C@@H]2O[C@H](CO)[C@@H](O)[C@H](O)[C@H]2O)[C@@H]2C(CO)=CC[C@H]12	post-procedure stability	rat plasma	1000 ng/mL, 3 h, room temperature	–	accuracy	96.8%
O=C1N[C@H](c2cncc(C#Cc3ccccc3)c2)[C@@H](c2ccccc2Cl)O1	–	rat	28 days	–	NOAEL	15 mg/kg/day
CCOc1c([C@H](C)n2nc(C)c3c(N)ncnc32)cc(Cl)c(F)c1[C@@H]1CNC(=O)C1	measured: QTcF above 500 ms	previously treated B-cell malignancy	oral, 5 mg once daily, baseline QTcF ≤450 ms	–	ECG observations	0%
FC(F)(F)c1ccc(CNc2ccc(Cc3c[nH]c4ncc(Cl)cc34)cn2)cn1	–	patients with advanced solid tumours	oral, 1000 mg/day, TGCT cohort, all grades	–	cognitive disorder incidence	18%
[18F]c1ccc(-c2ccc3c(c2)[nH]c2ccncc23)cn1	ex vivo biodistribution	APP/PS1 mouse, AD model, blood	intravenous, 30 min	–	SUV	0.252 ± 0.08
Oc1ccc(/C=C/c2cc(O)cc(O)c2)cc1	–	rat, azoxymethane-injected, blood at sacrifice	10 mg/kg	–	blood urea nitrogen	18.1 mg/dL and 22.3 mg/dL and 18.8 mg/dL
CO[C@H]1/C=C/O[C@@]2(C)Oc3c(C)c(O)c4c(c3C2=O)C2=NC3(CCN(CC(C)C)CC3)NC2=C(NC(=O)/C(C)=C\C=C\[C@H](C)[C@H](O)[C@@H](C)[C@@H](O)[C@@H](C)[C@H](OC(C)=O)[C@@H]1C)C4=O	–	CD-1 mouse female, plasma	oral, 10 mg/kg	–	fAUC/MIC ratio	0.25
CNCCOC12CC3(C)CC(C)(CC(Cn4ncc(-c5ccc(N6CCc7cccc(C(=O)Nc8nc9ccccc9s8)c7C6)nc5C(=O)O)c4C)(C3)C1)C2	–	anaesthetised male beagle dogs	intravenous bolus, 0.03 mg/kg, 45 min	–	plasma concentration	0.0016 ± 0.0001 µg/mL
CC(C)n1c(Nc2cccnc2)nc2cnc(Nc3ccc(N4CCN(C)CC4)cc3)nc21	measured: diastolic blood pressure increased	healthy male subjects	oral, 150 mg, study, added: rifampin	–	subjects with adverse event	7.1%
C[Si]1(C)O[Si](C)(C)O[Si](C)(C)O[Si](C)(C)O[Si](C)(C)O1	–	air/water	concentration not given	–	entropy of phase change	0.476 kJ/(mol·K)
CC(C)[C@H](C(=O)Nc1ccc(C(=O)NO)cc1)c1ccccc1	–	whole blood	10.0 ng/mL, 0 h, 4 °C, stability on ice	–	accuracy	101%
NC1(C(=O)N[C@@H](CCO)c2ccc(Cl)cc2)CCN(c2nc[nH]c3nccc2-3)CC1	–	human mCRPC patients	oral, twice daily, 4/7 days, any grade, treatment-related, added: enzalutamide 160 mg daily	–	weight decreased incidence	13.3%
CCOC(=O)c1c(NC(=O)CNC(C)C)sc2c1CCCCC2	–	mouse, brain	intraperitoneal, 100 mg/kg	–	brain AUC(0-24 h)	31900 ng·h/g
COc1ccc2nc([S@@+]([O-])Cc3ncc(C)c(OC)c3C)[nH]c2c1	–	human, dried blood spots	10 mg omeprazole, median, added: voriconazole	relative to: with voriconazole over alone	AUC ratio	3.4
CN1C(=O)[C@@H](NC(=O)c2nnc(Cc3ccccc3)[nH]2)COc2cccnc21	–	human, plasma	oral, 50 mg once daily, day 1, geometric mean	–	Cmax	1.09 µg/mL
O=C(Nc1cnccc1Cl)N1CCN(Cc2ccc3c(c2)OC(F)(F)O3)CC1	measured: Presyncope	human healthy young men	10 mg, multiple dose	–	adverse event incidence	33.3%
O=C(O)C1=CO[C@@H](O[C@@H]2O[C@H](CO)[C@@H](O)[C@H](O)[C@H]2O)[C@@H]2C(CO)=CC[C@H]12	three freeze-thaw cycles	rat plasma	1000 ng/mL, -70 °C freeze	–	accuracy	92.4%
CNC(=O)c1ccc(-c2cnc3ncc(Cc4ccc5ncccc5c4)n3n2)cc1F	measured: Headache, all grades	cancer patients	oral, dose not given, dose escalation, any causality	–	patients with adverse event	8%
OCC1=C[C@@H](O)[C@@H]2C=CO[C@@H](O[C@@H]3O[C@H](CO)[C@@H](O)[C@H](O)[C@H]3O)[C@H]12	post-procedure stability	rat plasma	8 ng/mL, 1 h, room temperature	–	accuracy	84.1%
COc1cc(Nc2ncc3c(n2)-c2ccc(Cl)cc2C(c2c(F)cccc2OC)=NC3)ccc1C(=O)O	measured: Constipation, grade 1	cancer patients, phase 1/2	oral, dose not given, added: pembrolizumab	–	patients with adverse event	13%
O=C(CCCCCCC(=O)Nc1ccc(CC[18F])cc1)NO	–	athymic nu/nu male mice, LNCaP xenograft, heart	intravenous, 1 h	–	tissue uptake	1.6 ± 0.3 %ID/g
CN(CCC(=O)O)C(=O)c1ccc2c(c1)CC[C@@H]1[C@@H]2CC[C@]2(C)C(c3cncc(F)c3)=CC[C@@H]12	–	premenopausal women, endometriosis pain, serum	60 mg twice daily, visit 6, median	relative to: baseline	total bilirubin change	0.5 mg/dL
c1ccc2c(c1)ccc1cc3c(ccc4ccccc43)cc12	–	PDMS-water partitioning	PAH compilation	–	literature range of log K	5.42 to 5.7 log units
Cc1ccc(N(C)C(=O)/C=C/c2ccco2)cc1	hot plate test	mice	oral, 30 mg/kg single, 15 min	–	licking latency	14.5 ± 0.7 s
NC(=O)c1[nH]cnc1N	–	leiomyosarcoma patients, plasma	intravenous, dose not given, cycle 2 day 1, added: dacarbazine co-administered	relative to: cycle 1 day 1	AUC(0-8h) reduction	72.7%
COc1ccc2c(c1)CN(C(=O)CCN1CCC(Cc3ccccc3)CC1)CC[S@@+]2[O-]	telemetry	conscious dog	intravenous, 4 mg/kg, 4 h	–	heart rate	59 ± 5 beats/min

Compound	test	test system	setting	scale	measurement	result
COc1cccc(OC)c1-c1cc(C(=O)NC2(C(=O)O)C3CC4CC(C3)CC2C4)nn1-c1ccc(C(=O)N(C)CCCN(C)CCCN(C)C(=O)CN2CCN(CC(=O)[O-])CCN(CC(=O)[O-])CCN(CC(=O)[O-])CC2)cc1C(C)C.[177Lu+3] (stereo not drawn)	–	mouse, HT-29 xenograft	168 h post injection, biodistribution	relative to: tumour over blood uptake	tumour-to-blood ratio	4.02
Cc1cc(NC2CCN(C(=O)OC3CCN(C(=O)/C=C/CN(C)C)C3)CC2)n2ncc(C(C)C)c2n1 (stereo not drawn)	Phase I dose escalation CTCAE v4.0, measured: small intestinal obstruction	patients with advanced solid tumours	dose not given, TIW dosing any grade	–	patients with adverse event	0%
CC(C)[N+](C)(CCOC(=O)C1c2ccccc2Oc2ccccc21)C(C)C	–	mouse, CD-1, both sexes, whole blood	5 µM, 15 min	–	remaining compound	82.8%
Cc1ccc([C@@H]2O[C@H](CO)[C@@H](O)[C@H](O)[C@H]2O)cc1Cc1ccc(-c2ccc(F)cc2)s1	–	Japanese type 2 diabetes patients	400 mg, day 5, 24 h urine collection	relative to: baseline	urinary calcium excretion change	-27.5 mg
COc1cc2nccc(Oc3ccc(NC(=O)c4cc5c(n(-c6ccccc6)c4=O)CCCC5=O)nc3)c2cc1OC	–	relapsed or refractory AML	oral, all dose levels	–	grade ≥3 Anaemia patients	35%
COc1ccc2cc(CCC[18F])ccc2c1	–	n-octanol/0.1 M phosphate buffer	pH 7.4, 25 °C, per radiosynthesis batch	–	partition coefficient	296 and 292 and 272
CC[C@@H]1CN(C(=O)NCC(F)(F)F)C[C@@H]1c1cnc2cnc3[nH]ccc3n12	population PK modelling	human	oral, extended-release formulation, outliers excluded	–	ER dose fraction absorbed zero-order	74.5%
CO[C@H]1C[C@@H]2CC[C@@H](C)[C@@](O)(O2)C(=O)C(=O)N2CCCC[C@H]2C(=O)O[C@H]([C@H](C)C[C@@H]2CC[C@@H](O)[C@H](OC)C2)CC(=O)[C@H](C)/C=C(\C)[C@@H](O)[C@@H](OC)C(=O)[C@H](C)C[C@H](C)/C=C/C=C/C=C/1C	–	healthy adult horses	oral, 0.06 mg/kg, 24 h	–	heart rate	35.5 ± 2.4 beats/min
Cc1c(-c2ccc(N3CCc4cccc(C(=O)Nc5nc6ccccc6s5)c4C3)nc2C(=O)O)cnn1CC12CC3(C)CC(C)(C1)CC(OCCNCC[C@H](O)CO)(C3)C2	–	beagle dog, male, anaesthetised	intravenous infusion, 0.3 mg/kg/min, 45 (unit not given)	relative to: vehicle	heart rate change	-9%
Cc1cc(Nc2ccc(S(F)(F)(F)(F)F)cc2)n2nc(C(C)(F)F)nc2n1	–	Plasmodium vivax malaria patients	oral, 600 mg	–	adverse event Vomiting	11.1%
O=C(Nc1nc2cccc(-c3ccc(CN4CCS(=O)(=O)CC4)cc3)n2n1)C1CC1	measured: cardiac disorders	human rheumatoid arthritis patients	oral, 200 mg once daily, 4 weeks, regardless of relatedness	–	treatment-emergent adverse events	0%
NCCONC(=O)[C@@H]1CC[C@@H]2CN1C(=O)N2OS(=O)(=O)O	–	human male, urine	intravenous infusion, 2 g multiple doses, day 9	–	amount excreted in urine (0-8 h)	1620 mg
N#Cc1ccc2c(c1)[C@H]1CCCN(C(=O)c3ccc4[nH]cnc4c3)[C@H]1C2	–	human	40 mg, day 7	–	median ACTH level	6.6 pmol/L
CCN1/C(=C/C(C)=O)Sc2ccc(F)cc21	–	cynomolgus monkey	oral, 30 mg/kg, 0.5 h post-dose	–	QT interval	231 ± 11 ms
c1ccc2c(c1)-c1cccc3c1c-2cc1ccccc13	–	PDMS-water partitioning	PAH compilation	–	literature range of log K	4.77 to 5.64 log units
CCc1cc(C(=O)NC)c2nccc(N3CCc4c(cc(Cn5ccnc5)cc4-c4cn(C)nc4C(F)(F)F)C3=O)c2c1	–	Sprague Dawley rats	oral, 100 mg/kg twice daily, 7 days	relative to: vehicle	blood Baso change	-29.4%
CCC(=O)O[C@]1(C(=O)SCF)[C@H](C)C[C@H]2[C@@H]3C[C@H](F)C4=CC(=O)C=C[C@]4(C)[C@@]3(F)[C@@H](O)C[C@@]21C	three-compartment model	rat, plasma	intravenous, 90 nmol/kg	–	slow distribution clearance	2.1 ± 0.63 L/h/kg
CN[C@@H](C)C(=O)N[C@H]1CN(S(=O)(=O)c2cccc(S(=O)(=O)N3CC[C@H]4CC[C@@H](C(=O)NC(c5ccccc5)c5ccccc5)N4C(=O)[C@@H](NC(=O)[C@H](C)NC)C3)c2)CC[C@H]2CC[C@@H](C(=O)NC(c3ccccc3)c3ccccc3)N2C1=O	LC-MS/MS	human, advanced solid tumours, plasma	intravenous, 20 mg weekly, day 15	–	AUC(0-t)	0.352 ± 0.0738 µg·h/mL
C[C@@H](N)C1CCN(S(=O)(=O)c2cccc3cnccc23)CC1	measured: Tachycardia	healthy volunteers	150 mg, fed	–	TEAE incidence	0%
Cc1coc([C@H]2C[C@H]3[C@@H](CF)SC(N)=N[C@@]3(c3ccc(F)cc3F)CO2)n1	–	male 129/SVE mouse, brain	subcutaneous, 80 mg/kg, 1 h	–	brain concentration	13.1 µM
Cc1cc(Nc2cc3ncccc3c(N[C@@H]3C[C@H]4CC[C@@H](C3)N4CCC#N)n2)n[nH]1	–	healthy human	oral, 100 mg multiple doses, 14 days	–	subjects with contact dermatitis	0%
O=C(O)CCC(=O)O.[2H]C([2H])([2H])Oc1cc(C)c2[nH]ccc2c1CN1CC[C@@H](C2CC2)C[C@H]1c1ccc(C(=O)O)cc1	–	human, plasma	300 mg once daily, day 10, multiple ascending dose	–	Vss/F	125 L
C[C@@H]1CN(CC(=O)N2CC(C)(C)c3ncc(Cc4ccc(F)cc4)cc32)[C@@H](CN2CCOC[C@H]2C)CN1	–	cynomolgus monkey, male	oral, 5 mg/kg, median	–	Tmax	2 h
Cn1cc(Nc2nccc(-c3ccc4c(c3)CN(C3COC3)CC[C@H]4NC(=O)c3cn(C(C)(C)C)nn3)n2)cn1	–	human, whole blood	300 mg twice daily, day 14	relative to: pre-dose baseline	granulocyte count change	-4.01%
Cc1ccc(O)c(-n2nc3ccccc3n2)c1	–	human aged 21-60 years	concentration not given, sunscreen, 95th percentile	–	daily dermal exposure dose	4080 ng/kg/day
C[C@@H](Oc1ccc(S(C)(=O)=O)cc1C(=O)N1C[C@@H]2C[C@]2(c2cc(C(F)(F)F)on2)C1)C(F)(F)F	–	young healthy humans, plasma and urine	oral, 10 mg, 0 to 24 h, multiple dosing once daily	–	renal clearance at steady state	5.94 mL/min
C=CCN1CC(=O)N2[C@@H](Cc3ccc(O)cc3F)C(=O)N(Cc3cccc(N4CC(N5CCN(CC)CC5)C4)n3)C[C@@H]2N1C(=O)NCc1ccccc1	–	advanced solid tumour patients	oral, 30 mg twice daily, grade ≥3, dose-escalation	–	treatment-related vomiting	0%

A few entries again:
Compound	test	test system	setting	scale	measurement	result
Cc1coc([C@H]2C[C@H]3[C@@H](CF)SC(N)=N[C@@]3(c3ccc(F)cc3F)CO2)n1	–	male 129/SVE mouse, brain	subcutaneous, 80 mg/kg, 1 h	–	brain concentration	13.1 µM
CN(CCC(=O)O)C(=O)c1ccc2c(c1)CC[C@@H]1[C@@H]2CC[C@]2(C)C(c3cncc(F)c3)=CC[C@@H]12	–	premenopausal women, endometriosis pain, serum	60 mg twice daily, visit 6, median	relative to: baseline	total bilirubin change	0.5 mg/dL
c1ccc2c(c1)ccc1cc3c(ccc4ccccc43)cc12	–	PDMS-water partitioning	PAH compilation	–	literature range of log K	5.42 to 5.7 log units
O=C(Nc1cnccc1Cl)N1CCN(Cc2ccc3c(c2)OC(F)(F)O3)CC1	measured: Presyncope	human healthy young men	10 mg, multiple dose	–	adverse event incidence	33.3%
NC(=O)c1[nH]cnc1N	–	leiomyosarcoma patients, plasma	intravenous, dose not given, cycle 2 day 1, added: dacarbazine co-administered	relative to: cycle 1 day 1	AUC(0-8h) reduction	72.7%
C[C@@H]1CN(CC(=O)N2CC(C)(C)c3ncc(Cc4ccc(F)cc4)cc32)[C@@H](CN2CCOC[C@H]2C)CN1	–	cynomolgus monkey, male	oral, 5 mg/kg, median	–	Tmax	2 h
O=C(CCCCCCC(=O)Nc1ccc(CC[18F])cc1)NO	–	athymic nu/nu male mice, LNCaP xenograft, heart	intravenous, 1 h	–	tissue uptake	1.6 ± 0.3 %ID/g
